Results pooled from the literature.
Every numbered part comes from another study and shows a few of its results, in no order. Substitutions count along the parent as printed.

Set 1
Target: Sal-like protein 4, full length isoform B (SALL4, Homo sapiens, UniProt Q9UJQ4-2, residues 1-616)
Technique: universal PBM
Form: double-stranded DNA, one strand shown
Medium: in vitro
Tested at: not given
Notes: 8-mer, flanks averaged, mean of replicates
Direction: higher = stronger binding
Measurement: E-score
AGTCTTGG: -0.0898
CAACCAGG: -0.214
GCTAGTCC: -0.198
GGTTAATA: 0.278
GTGAATTA: 0.277
CGATAAGA: 0.102
CCAGTCCG: -0.325
ACATCTTG: 0.0947
AAGCTGGA: -0.00156
TCTACAAA: 0.163
GCTCCGGA: -0.21
AGCCCTAT: -0.0158
AAACTACT: 0.165
CAAAAACA: 0.16
ATGGCTCC: -0.13
AGACTGTG: -0.0728
AAAGGTTC: 0.0202
AAAGTGGT: -0.0703

Set 2
Target: JDP2, bZIP domain (human)
Technique: DHFR protein complementation
Medium: yeast
Notes: single substitutions, most at no-binding floor
Relative to: wild-type JUN-FOS pair
Direction: higher = stronger binding
Measurement: binding fitness
Starting sequence: JUN, bZIP domain (human); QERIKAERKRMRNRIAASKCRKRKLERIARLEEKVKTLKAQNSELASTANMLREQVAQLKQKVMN; partner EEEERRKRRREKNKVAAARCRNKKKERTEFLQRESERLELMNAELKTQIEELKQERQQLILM
T37S: 0.272 natural log
Q41D: 0.226 natural log
E32K: 0.201 natural log
I28Q: 0.341 natural log
R30L: 0.297 natural log
A49S: 0.163 natural log
N42V: 0.127 natural log
K34A: 0.298 natural log
T48R: 0.28 natural log
E32T: 0.202 natural log
R53K: 0.276 natural log
A49M: 0.233 natural log
A29P: 0.22 natural log
K39V: 0.285 natural log
L31F: 0.248 natural log
A49F: 0.139 natural log
L38R: -0.0072 natural log
R30I: 0.256 natural log
L45K: -0.26 natural log
A46P: -0.836 natural log

Set 3
Target: Ras GTPase-activating protein-binding protein 1, full length (G3BP1, Homo sapiens, UniProt Q13283)
UniProt Q13283, sequence (whole entry, looked up): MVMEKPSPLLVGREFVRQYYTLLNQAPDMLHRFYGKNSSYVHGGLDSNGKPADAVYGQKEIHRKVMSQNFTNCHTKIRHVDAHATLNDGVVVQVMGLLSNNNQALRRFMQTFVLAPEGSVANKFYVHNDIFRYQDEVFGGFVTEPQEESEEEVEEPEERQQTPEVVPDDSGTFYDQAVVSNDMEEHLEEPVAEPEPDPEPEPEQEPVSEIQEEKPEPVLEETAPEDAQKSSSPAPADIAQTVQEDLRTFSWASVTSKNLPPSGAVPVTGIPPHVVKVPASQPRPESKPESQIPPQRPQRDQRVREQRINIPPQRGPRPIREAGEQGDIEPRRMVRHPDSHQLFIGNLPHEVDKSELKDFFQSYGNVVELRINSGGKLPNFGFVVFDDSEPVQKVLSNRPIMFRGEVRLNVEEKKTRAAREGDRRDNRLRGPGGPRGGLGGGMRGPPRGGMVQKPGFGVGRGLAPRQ
Technique: RNA Bind-n-Seq
Form: RNA
Medium: in vitro
Tested at: 200 nM
Notes: whole 134-nt RNA, ends assumed
With: 150 mM LiCl
Relative to: input library
Direction: higher = stronger binding
Measurement: log2 enrichment
Library: 7-deaza-guanosine replaces G
Constant ends, left off below: GGGAGUUCUACAGUCCGACGAUC … UGGAAUUCUCGGGUGUCAAGG
CUCAAGUCCUGUGCUACACAUCGUAUGUACCGAAUCGGAAAGGUUUGGUUUGGAAAGUAUUAUGUUACGCCGUUCGGAUCUGCACUUCCA: -0.02
AGUCCUGUGCUACACAUCGUAUGUACCGAAUCGGUUUUUGGUUUUUGGGUUUUUGGGAAAGUAUUAUGUUACGCCGUUCGGAUCUGCACU: -0.906
AAGUCCUGUGCUACACAUCGUAUGUACCGAAUCGGCCCCGGGGCCCCGGCCCCGGGGAAAGUAUUAUGUUACGCCGUUCGGAUCUGCACU: -1.53
ACCAUGCAGGUGGGCAUCUUUGGGAAGUGGGGCAAGGGGGGGAUAGGGAGGGGGGUAACACUUUGUGAACAGGUGGUCCCAGGUCGUUUC: 0.0386
UUUCUGUGUGCUUAGGUGCCCGAGCUACUGAGGGUCUAAGUCCGGGCAGCCGAAGAGUGUGGUAGGUAACGGUCCUCAGCGCAAGGGUCA: 0.938
GUCCUGUGCUACACAUCGUAUGUACCGAAUCGGGUUUUUGGGAAAAAGGGUUUUUGGGAAAGUAUUAUGUUACGCCGUUCGGAUCUGCAC: -2.25
AGUCCUGUGCUACACAUCGUAUGUACCGAAUCGGGGAAAAAGGGGAAAGGGGUGGGGAAAGUAUUAUGUUACGCCGUUCGGAUCUGCACU: -0.0835
GUCCUGUGCUACACAUCGUAUGUACCGAAUCGGGGAAAGGGGUUUUUGGGGUUUGGGGAAAGUAUUAUGUUACGCCGUUCGGAUCUGCAC: -0.984
AAGUCCUGUGCUACACAUCGUAUGUACCGAAUCGGGAAAAGGGGAAAAGGAAAAGGGAAAGUAUUAUGUUACGCCGUUCGGAUCUGCACU: 0.351
ACCACUGCUACAGUCACCACCACCCAGGCCUCCUAUGCAGCUCAGUCUGCAUAUGGCACUCAGCCUGCUUAUCCAGCCUAUGGGCAGCAG: 1.2
CAAGUCCUGUGCUACACAUCGUAUGUACCGAAUCGGAGGUUUUUUUGGUUUUUGGAAAGUAUUAUGUUACGCCGUUCGGAUCUGCACUUC: -1.24

Set 4
Target: RNA binding protein fox-1 homolog 2, RRM domain, GST-SBP tag (RBFOX2, Homo sapiens, UniProt O43251-10, residues 100-194)
Technique: RNA Bind-n-Seq
Form: RNA
Medium: in vitro
Tested at: 365 nM
Notes: natural RNA segment, single round, ends assumed
Relative to: no-protein control
Direction: higher = stronger binding
Measurement: RBNS enrichment (R)
Constant ends, left off below: GGGAGUUCUACAGUCCGACGAUC … UGGAAUUCUCGGGUGCCAA
Target sequence (chain): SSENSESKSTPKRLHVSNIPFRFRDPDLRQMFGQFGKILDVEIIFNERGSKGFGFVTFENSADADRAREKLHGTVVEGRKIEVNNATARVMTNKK
UUGUGGUUUAUUGAAUGUGAUUUUUCUGCACUAAUAUAAAUUAGACUAAGUGUUUUCAAAUAAAUCUAAAUCUUCAGCAUGAUGUGUUGUGUAUAAUUGGAGUAGAUAUU: 9.89
UCGAUAAACUAACUACUGUAGAAGAAGUGAACACUUACCUGGAGGCUCACCUUGCAGAACCAGUGACAAUCUUAUGAGUAUAAUGAACACUCAGCCAGGCCUGUCAUGAU: 0.357
GUGUCAGGCCGGCUUGGACAAUGAAACCCUGACCUUGCUGCAUUCCUUUUGCUUCCACCACCACUAGCUUCUUUGGAAUCUUGGGGUGGGGGUCAUCUUUGGGGAUUAUG: 0.208
UCAUAUAUGUAGGCUCUGAAAUGUUGUGAUGCUUAUUGCUUCUGUAUUUCUUCUCUACUCCCUAGUCUUAAUGUUUAACCUUGAAUGCUAUUAACUUAAAUAGCCAUUGA: 0.597
UUUCUAUGUCUCCCCAAGGCUGGGGUGCUGAGCCUGCCUUCCUCACCACCUAGCCAUAGUCUCAAACCUGUGGGGAAGGAGGUUUUCUCCCUGCCCGGGAAGAGGACAGA: 0.34
CUCCUUUGUUUUCCGCCUAGCGACAAGGGAUUUGCUCGCACGGCAUUGGCUCCAUCCCCUAGUCGCUGGACAGCUCUUUUUUUGAUUGGCUCAAAUCCUGUAAAGGGCUU: 2.22
CCAAACACUUGGGUUUGGUGACCCUGUCUUUCUUAUAUGACCCUACAAUAAACAUUUGAAGGCAGCAUAGGAUGGCAGACAGUAGGAACAUUGUUUCACUUGGCGGCAUG: 0.484
GCCCCCGCGUACAGGUCCAGCUGCGGAGGGAGAGAGCCUUGUGUGGGACUGUUAUUCCCAGGGCUCCAGCAAGCCACUCCCUGGGUGACCUCGGGCAAGGCCCUCUCUGG: 4.96
AAGCCUUUCUUCCUUUAUAUCUUCUGACUGAGCUCUCCCUGAUUGACAUCACCUCAUGCGAUGACCUCCCUCAUUCUGUGCUGCCUCAGCACUUAUCUUUUGAGUUUGUA: 0.397
CCACAAGUCUUGGCCCUUAACCUUUAUCUUUCUUCCUGUCCUCUCACCUAGAUUGUAAGCUCCCUGGGCCAGGACUUCAGCCUGCCUCCGAGGGUCCCCUGUGGCACCUA: 1.19
UCACGAGUGUUCUCCAGAGAAUCAGAACCCAGAGGAUACAGACGUAGAUGUGUGAGGGGCUGCAUUAUGGGAACUGGCUCACAGAUUCUGGAGGCCAACAAGUCCCACGA: 0.286
UCAUGUGUAACGUGGGUCUGUUUAGCUGAGAUAGACUAGAGGAGGACACUAGAGAUGCCCAUUCCUACUCCCUCCCUUUGGUCACUAGCCACCAUUAUGGUUCCACUGGC: 0.353

Set 5
Target: RING finger protein unkempt homolog, zinc fingers 1-6, GST-SBP tag (UNK, Homo sapiens, UniProt Q9C0B0, residues 30-357)
UniProt Q9C0B0, sequence (30-357, looked up): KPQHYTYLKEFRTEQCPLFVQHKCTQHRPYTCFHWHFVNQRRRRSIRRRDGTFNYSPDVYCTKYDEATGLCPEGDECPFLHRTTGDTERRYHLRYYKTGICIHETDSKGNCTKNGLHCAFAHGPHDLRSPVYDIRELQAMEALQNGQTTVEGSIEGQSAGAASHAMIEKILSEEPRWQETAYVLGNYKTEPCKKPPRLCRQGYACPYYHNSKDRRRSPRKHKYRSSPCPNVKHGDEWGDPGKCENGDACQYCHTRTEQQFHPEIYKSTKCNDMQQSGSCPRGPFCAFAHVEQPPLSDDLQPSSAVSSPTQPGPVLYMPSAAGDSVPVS
Technique: RNA Bind-n-Seq
Form: RNA
Medium: in vitro
Tested at: not given
Notes: RNA with constant flanks, human and mouse sites, ends assumed
Relative to: input RNA pool
Direction: higher = stronger binding
Measurement: bound/input enrichment
Constant ends, left off below: GGGAGUUCUACAGUCCGACGAUC … CAACAGAGGAUUGAGCAUCA
UCAGGGCCAAAACUGGAACCAAGGAUUUAAUAACUAUUAUGAUCAAGGAUAUGGAAAUUAUAAUAGUGCCUAUGGUGGUGAUCAGAACUAUAGUGGCUAUGGCGGCUAUGAUUAUACUGG: 0.201 ratio
GCAGUGGAAAGAGAAGCAGAGCAUAUGAACUAUGUGUCCUUUUCAGGGAGUAAGGCAUGUCGAGGCUUUGGCUAUGUCACUUUUUCAAUGCUGGAAGAUGUUCAGAGGGCCCUCAAGGAG: 0.181 ratio
GACCCAGGAAGCAAAGACCCAGAAGAAGAUUACCCCAAGUUUGGACUUUUGGAUCAGGAUCUUAGUAAUAUUGGUCCUGCUUAUGACAACCAGAAACAAAGCAGUGCUGUGUCUGCUAGU: 0.257 ratio
ACAGAAAACAUCAAUAGUGGUUAUGAGACCAGAAGGAAAAAAGGAAAAAAAGAGAAAGAUACUUCAAAAGAAAAAGACAUACAAAAUCAGAAUAUGACUUUGGACUGUGAAGGAACAAAC: 0.501 ratio
AAUUUUAACCAAGAAUCUGAAGGUAGAAAUACAGGACCAUGGUUAUCUUCCUCACUUAGAAAUAGAUGCACACCUUUGUUCUCUAGAAGGAGGCGAGAGGGAAGAGAUGAAUCUUCAAGG: 4.63 ratio
GUGCUAUUAAUAUUAGCUGAAGUAGCAAGCUAAAAGUAGACACUUCAUUUAUCUUUUUAGUAGCAUCCUCUCAACUGUUCCAGAUCCAGUUUUGCAUUUGGUUGUCUGUCUCAGUAGUCU: 0.455 ratio
AUCCCAAUUAUGGACACCGGUGAAAACCCAGAGGUGCCCUUCCCUCGGGACAUGAUCGACUUAGAGGCCAAUUUCGAGAAGAUUGAAAAUGAACUGAAGGAAAUCAACACUAACCAGGAA: 0.159 ratio
AGUUAGAAAUUAAGUCUACUGAAAAAUUUACAUUUUGAGUCAGGUUUUGUGUCAGUACUUUAGCAGUUUUUGAGAAUGUGUUUGAUAUCACAGUGUUUGUAAAUUCUAUGAAAAAUGCAU: 2.66 ratio
CCUUGGCAGCCAUUUCUCCCAGCAGUUUUAAAGGAUGAACAUUGGAUUUCAUGCCAUCCCAUAGAAAACCUGUUUUAAAAUUUUAGGGAUCUUUACUUGGUCAUACAUGAAAAGUACACU: 1.83 ratio
CCUUCUCCUUCAAGUGGUGGGACCGUCAAAAGCGACAAAGCAAAAACAAAGCCACCGCUUCAAGUAACAAAGGUAGACAAUAAUUUGACAGUAGAGAAAGCCACCAAGAAAACAGUUGUU: 0.589 ratio
GGCUGUAUGUUUUAUACAUUACUUAUCGGGAGACCACCCUUCGACACUGACACAGUCAAGAACACAUUAAAUAAAGUAGUAUUGGCAGAUUAUGAAAUGCCAUCUUUUUUGUCAAUAGAG: 4.8 ratio

A few entries again (set 2):
E32K: 0.201 natural log
T37S: 0.272 natural log
R53K: 0.276 natural log
A49M: 0.233 natural log
K39V: 0.285 natural log
K34A: 0.298 natural log
R30I: 0.256 natural log
